Measurements collected from several papers.
Each numbered part is a random draw from the data of one study; scales do not carry over between parts.

Set 1
Target: Ras GTPase-activating protein-binding protein 1, full length (G3BP1, Homo sapiens, UniProt Q13283)
Sequence of UniProt Q13283 (whole entry, looked up): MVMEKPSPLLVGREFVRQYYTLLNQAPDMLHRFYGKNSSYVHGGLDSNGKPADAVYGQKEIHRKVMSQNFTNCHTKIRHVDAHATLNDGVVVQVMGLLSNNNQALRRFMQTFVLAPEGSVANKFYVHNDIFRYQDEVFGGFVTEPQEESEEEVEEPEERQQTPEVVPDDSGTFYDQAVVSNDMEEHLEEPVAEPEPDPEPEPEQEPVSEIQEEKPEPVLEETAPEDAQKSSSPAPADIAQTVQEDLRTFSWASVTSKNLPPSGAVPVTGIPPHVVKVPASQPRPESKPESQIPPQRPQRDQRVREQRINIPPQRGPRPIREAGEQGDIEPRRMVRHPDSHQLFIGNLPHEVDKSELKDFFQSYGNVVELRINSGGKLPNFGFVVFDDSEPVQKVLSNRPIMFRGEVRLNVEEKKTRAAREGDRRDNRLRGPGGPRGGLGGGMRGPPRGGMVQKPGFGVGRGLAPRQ
Method: RNA Bind-n-Seq
Molecule type: RNA
Matrix: in vitro
Concentration: 200 nM
Notes: whole 134-nt RNA, ends assumed
With: 150 mM LiCl
Reference: input library
Reading: higher = stronger binding
Library: 7-deaza-guanosine replaces G
Shared flanks, not repeated: GGGAGUUCUACAGUCCGACGAUC … UGGAAUUCUCGGGUGUCAAGG
| Sequence | log2 enrichment |
| --- | --- |
| CAAGUCCUGUGCUACACAUCGUAUGUACCGAAUCGGUUUUUUUGGAAAGGUUUGGAAAGUAUUAUGUUACGCCGUUCGGAUCUGCACUUC | -2.09 |
| GCGGACCGAGAAAGUCGUUACGAGGAAGAAGAAGAACAAAGUCGAAGUAUGAGCCGGAAGAGGAAGGCAUCUGUGCACAGUUCGGGCCGU | 0.388 |
| UGGGAGGUGGAUUUUGUUUAUUUUUUUAGCUCAUUUCCAGGGGUGGGAAUUUUUUUUUAAUCUGUGUCAUGAAUAAAGUUGUUUUUGAAA | -0.267 |
| UGACCUGCACGGACAUCAACACCCUGACAAGGCAGAAGGAACUUCUCCUGCAGAAGCUGAGCACAUUUGAGGAGACCAACCGCACCCUCC | 0.571 |
| CUCAAGUCCUGUGCUACACAUCGUAUGUACCGAAUCGGAGGAAAAAAAGGAGGAAAGUAUUAUGUUACGCCGUUCGGAUCUGCACUUCCA | -0.407 |
| AAGUCCUGUGCUACACAUCGUAUGUACCGAAUCGGGAAAGGGUGGGUUUUUUUGGGAAAGUAUUAUGUUACGCCGUUCGGAUCUGCACUU | -0.666 |
| GCAGGAAGUAAAAACAAAUGGAAAUGCUUCGGAUAGUGGCAGGGGUGGGGGUUGCUAAGGAAAGGGUGGGAUGGGAGUGGGUAAAUAGUU | -0.0296 |
| GCAGGAAGUAAAAACAAAUGGAAAUGCUUCGGAUAGUGGCAGGGGUGGGGGUUGCAAAGGAAAGGGUGGGAUGGGAGUGGGUAAAGAGUU | 0.00514 |
| AAGUCCUGUGCUACACAUCGUAUGUACCGAAUCGGGAAAAAGGGUUUUUGGGAGGGAAAGUAUUAUGUUACGCCGUUCGGAUCUGCACUU | -0.872 |
| CCUGUGCUACACAUCGUAUGUACCGAAUCGGUUUUUUUGGUUUUUUUGGGUUUUUUUGGGAAAGUAUUAUGUUACGCCGUUCGGAUCUGC | -0.75 |
| AAGUCCUGUGCUACACAUCGUAUGUACCGAAUCGGAAAAAAAGGUGGAAAAAAAGGAAAGUAUUAUGUUACGCCGUUCGGAUCUGCACUU | -1.6 |

Set 2
Target: TAR DNA-binding protein 43, full length, His tag (TARDBP, Homo sapiens, UniProt Q13148, residues 1-414)
Method: RNA Bind-n-Seq
Molecule type: RNA
Matrix: in vitro
Concentration: 20 nM
Notes: 6-mer, flanks averaged, single round
With: 150 mM LiCl
Reference: input library
Reading: higher = stronger binding
| Sequence | 6-mer enrichment (R) |
| --- | --- |
| GGAUCU | 0.902 |
| GUCUGA | 0.925 |
| UCUGGA | 0.91 |
| AUUAGU | 0.988 |
| GAAAUC | 0.794 |
| GCAGCA | 0.955 |
| UAGACG | 0.896 |
| GCGUAA | 0.936 |
| CUCCUG | 0.932 |
| GCUUAG | 0.918 |
| CAUAAC | 0.849 |
| CUCUAU | 0.923 |
| AUGAAG | 0.975 |
| UGGUCU | 0.949 |
| AAGCAC | 0.835 |
| UACCGA | 0.832 |
| CUUUAU | 1.07 |
| CCAUGC | 0.921 |
| GGGCUG | 1.19 |
| CUACAA | 0.843 |
| CCGUCC | 0.912 |
| AUCGUA | 0.879 |
| GACAAG | 0.904 |
| CUUACG | 0.841 |
| GGGGUG | 1.64 |

Set 3
Target: Max dimerization protein 1, bHLH-zipper, MAX partner unstated (MXD1, Homo sapiens, UniProt Q05195, residues 56-136)
Method: protein-binding microarray
Molecule type: double-stranded DNA, one strand shown
Matrix: in vitro
Concentration: not given
Notes: k-mer, scored over probes, only values ≥0.25
Reading: higher = stronger binding
Construct (chain): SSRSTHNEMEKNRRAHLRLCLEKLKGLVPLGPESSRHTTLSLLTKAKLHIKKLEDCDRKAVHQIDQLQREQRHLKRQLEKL
| Sequence | E-score |
| --- | --- |
| ATGGCGTG | 0.292 |
| AAAATCAC | 0.265 |
| TCACGTGA | 0.47 |
| CCCGTGAC | 0.279 |
| CGAGGGAA | 0.251 |
| CACACGTG | 0.485 |
| CAACGTGG | 0.427 |
| ATGGGGTG | 0.292 |
| GGGGGAGA | 0.268 |
| GCGCACGC | 0.362 |
| ATCACGAG | 0.295 |
| CGTGCGTA | 0.258 |
| CACGCTAC | 0.311 |
| ACCCCGCC | 0.363 |
| ACACGCAC | 0.336 |
| CACGGGGA | 0.313 |
| ACGTGTTA | 0.432 |
| CGTGTATC | 0.349 |
| AACACGCA | 0.272 |
| CGTGATAA | 0.279 |
| CGGCGTGC | 0.373 |
| AGCACGCG | 0.416 |
| CACGATGC | 0.27 |
| ACTCGTGA | 0.301 |
| AGCATGCT | 0.401 |

Set 4
Target: Histone acetyltransferase KAT6A, both winged helices, GST fusion (KAT6A, Homo sapiens, UniProt Q92794, residues 1-181)
Method: protein binding microarray
Molecule type: double-stranded DNA, one strand shown
Matrix: in vitro
Concentration: not given
Notes: 8-mer, flanks averaged, mean of 2 arrays, mostly near background
Reference: not given
Reading: higher = stronger binding
Construct (chain): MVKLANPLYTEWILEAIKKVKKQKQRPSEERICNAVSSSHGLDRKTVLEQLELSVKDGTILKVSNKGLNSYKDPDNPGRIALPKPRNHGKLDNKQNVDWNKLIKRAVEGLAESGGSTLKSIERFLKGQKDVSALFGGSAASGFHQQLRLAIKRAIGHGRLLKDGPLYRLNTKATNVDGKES
| Sequence | E-score |
| --- | --- |
| ATCTGTGG | -0.143 |
| CAGTCCTA | -0.141 |
| AGTGAATA | -0.0669 |
| AGTTACTC | -0.143 |
| AAACTTAA | -0.0306 |
| AGAACCCC | -0.203 |
| AAGTTCTC | -0.171 |
| GCATTTGA | -0.0157 |
| ACGCCGAC | 0.243 |
| ATCGACTA | -0.197 |
| ACCGGCTG | 0.0914 |
| CTGAACAC | -0.016 |
| CGCGGACG | 0.319 |
| TACAAAAA | 0.0767 |
| CTAGTGGA | -0.165 |
| ACACCCAC | -0.206 |
| ATATATCG | -0.0407 |
| CGTGCTCA | 0.0396 |
| GCATGCAA | 0.0219 |
| ACCAGGTC | -0.0932 |

Set 5
Target: RING finger protein unkempt homolog, zinc fingers 1-6, GST-SBP tag (UNK, Homo sapiens, UniProt Q9C0B0, residues 30-357)
Sequence of UniProt Q9C0B0 (30-357, looked up): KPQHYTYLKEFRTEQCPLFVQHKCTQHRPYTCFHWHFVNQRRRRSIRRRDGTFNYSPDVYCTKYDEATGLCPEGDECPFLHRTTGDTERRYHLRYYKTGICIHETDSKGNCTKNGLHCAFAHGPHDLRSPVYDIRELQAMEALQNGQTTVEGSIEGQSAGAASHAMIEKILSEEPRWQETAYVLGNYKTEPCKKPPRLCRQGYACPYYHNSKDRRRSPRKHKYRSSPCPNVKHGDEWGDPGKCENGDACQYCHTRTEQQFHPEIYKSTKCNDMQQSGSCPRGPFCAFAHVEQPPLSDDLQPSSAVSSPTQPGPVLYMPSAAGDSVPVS
Method: RNA Bind-n-Seq
Molecule type: RNA
Matrix: in vitro
Concentration: not given
Notes: RNA with constant flanks, human-mouse chimeric sites, ends assumed
Reference: input RNA pool
Reading: higher = stronger binding
Shared flanks, not repeated: GGGAGUUCUACAGUCCGACGAUC … CAACAGAGGAUUGAGCAUCA
| Sequence | bound/input enrichment [ratio] |
| --- | --- |
| CAGGGCAUCAUCUCUCGAGCUGUUAAACACCUGUUCAAGAGUAUUGAUGAGAAAAAGACCUCAGCGAUUAAAAACGGGCUUCCUGCUCCUGAAUUCAAAGUGAAUGCCCAGUUCCUAGAG | 0.184 |
| GAGUCGAGCAAACUUGAAACAAUUCGUUAUCUUGCAGCCUCAGUGUUCACUUGCUUGGCGAUAGCAUUGGGGUUUUAUAUAGAUUCUAAGGAGAACUUUAAUGCUCACUGCCGCUGCUGC | 0.177 |
| GGCUGCUACUAUUCUCCCUGGAGUGGCUGGAGUUCCCGCCGGAGCGCGGCCAGACUAAUUUUAGAAAAUGCCAAGUAGGAAGUUUGUUGAGGGUGAAGUGGUCAGAGGUCGAUGGCCUGG | 5.92 |
| GAUCAUGAACCACCAUCAGAAAUGAAGAUGAGAUUACCCAGACGAGCCAAAACAGCUGCGCUACAGAAAAAGUAAACUAACCUUGCAGAGUUCCUUAAAUGAAGAUCAAGUUAAGAGAGC | 0.333 |
| UCUGGCCACACUCGUGUGUAUGGUGUUUGCUUUGUGGAUACUUCACUGGGCAAGUUUUUCAUCGGCCAGUUUUCGGAUGACCGCCACUGUUCCAGAUUUAGGACGCUAGUGGCUCACUAU | 0.209 |
| AGUUCCAAACCACCAUCCAGAAAUGAAAUGAGAUUACCCAGACGAGCCAAAACAGCUGCGCUACAGAAAAGUAAACUUAACCUUGCAGAGUUCCUUAAUGAAGAUACAAGUUAAGAGAGC | 0.227 |
| GAGUCGAGCAAACUUGAAACAAUUCGUUUUACAAAAACCUCAGUGUUCACUUGCUUGGCGAUAGCAUAUUGGGAUUUUAGGUUCUGGAAGGAGAACUGACGAUGAUGCUGCCGCUGCUGC | 0.365 |
| AAAGAGUGGAUAGAGUGUGCACACGGGAUCGGUUAUACCCGGGCGAAAAAGGAGUGCAAGAUAGAGUUCGAUGACUUCGAAGAGUGCUUGCUUCGGCACAAAACGAUGAGGCGAAUGCAU | 0.424 |
| AGAAUCUUGGGACUGUUUUACUUAAUUGGUCAUUGAUAGCUUAACAAGCAUGGAGAUAAGAUUAGAAAUCUUGACAUCAACAGGUAUUAAGCAGAAAAAACCCUGGCCACGUGUCUCCUG | 0.197 |
| GGAAGCACAAUGAUGGAGAUUGAUGGUGACAAAGGCAAACAAGGCGGGCCCACCUACUACAUAGACACCAAUGCCCUCCGCGUGCCCAGGGAGAACAUGGAGGCCAUCUCACCACUCAAG | 0.203 |
| UCUGAGGUACCACUGAAGAGACCUUAAAAGAAUCAUUUGAGGGCUCUGUUCGUGCAAGAAUAGUCACUGAUCGGGAAACUGGUUCUUCCAAAGGGUUUGGUUUUGUAGACUUUAAUAGUG | 0.738 |

Set 6
Target: Sal-like protein 4, full length isoform A (SALL4, Homo sapiens, UniProt Q9UJQ4, residues 1-1053)
Sequence of UniProt Q9UJQ4 (whole entry, looked up): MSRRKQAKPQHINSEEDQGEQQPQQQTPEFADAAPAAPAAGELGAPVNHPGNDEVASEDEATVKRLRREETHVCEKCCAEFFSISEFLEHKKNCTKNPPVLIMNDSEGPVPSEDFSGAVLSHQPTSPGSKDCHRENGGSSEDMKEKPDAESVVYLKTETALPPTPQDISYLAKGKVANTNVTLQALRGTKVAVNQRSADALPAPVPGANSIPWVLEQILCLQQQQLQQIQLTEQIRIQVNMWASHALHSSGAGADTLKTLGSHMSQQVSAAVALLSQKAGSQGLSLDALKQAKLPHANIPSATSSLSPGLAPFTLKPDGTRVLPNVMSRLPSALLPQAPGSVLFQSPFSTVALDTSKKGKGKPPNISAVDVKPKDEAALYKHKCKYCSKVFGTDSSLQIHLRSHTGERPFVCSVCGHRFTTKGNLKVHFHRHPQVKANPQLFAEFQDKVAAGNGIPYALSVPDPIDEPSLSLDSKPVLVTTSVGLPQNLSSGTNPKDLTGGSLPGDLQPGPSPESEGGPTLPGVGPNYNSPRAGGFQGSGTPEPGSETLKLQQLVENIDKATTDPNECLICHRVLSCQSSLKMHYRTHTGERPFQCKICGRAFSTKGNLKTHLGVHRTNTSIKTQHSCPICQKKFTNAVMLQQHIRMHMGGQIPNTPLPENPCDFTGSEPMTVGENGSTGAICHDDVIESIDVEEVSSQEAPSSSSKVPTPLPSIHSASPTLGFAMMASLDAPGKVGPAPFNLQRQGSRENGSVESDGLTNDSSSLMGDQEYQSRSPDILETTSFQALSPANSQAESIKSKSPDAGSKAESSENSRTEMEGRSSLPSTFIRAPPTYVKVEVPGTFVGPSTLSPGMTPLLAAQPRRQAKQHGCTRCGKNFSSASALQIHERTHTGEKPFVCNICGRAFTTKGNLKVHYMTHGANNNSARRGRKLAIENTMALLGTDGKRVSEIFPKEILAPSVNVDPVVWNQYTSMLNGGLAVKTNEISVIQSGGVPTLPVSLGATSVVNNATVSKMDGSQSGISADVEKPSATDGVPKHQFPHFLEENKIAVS
Method: universal PBM
Molecule type: double-stranded DNA, one strand shown
Matrix: in vitro
Concentration: 600 nM
Notes: 8-mer, flanks averaged, mean of replicates
Reading: higher = stronger binding
| Sequence | E-score |
| --- | --- |
| ACTATCCT | 0.0619 |
| GCATGCGC | -0.13 |
| CCATCAGC | -0.155 |
| GGCTACAA | -0.0576 |
| GGAAGCAC | -0.15 |
| GGTTGTAA | 0.145 |
| CGAGAGCG | -0.286 |
| ACCCCTGA | -0.0566 |
| CCTACTTC | -0.0326 |
| GATCATCC | -0.156 |
| AAGATTAT | 0.268 |
| ATACGAAC | 0.0972 |
| AGGAATGG | -0.133 |
| GGCTAGAC | -0.172 |
| CCTTTCTA | 0.0954 |
| ATTAAACA | 0.313 |
| GGAACCTA | -0.0743 |
| CGCGACCC | -0.284 |
| CCTAAGAC | -0.146 |
| ACCCTATC | -0.154 |
| CTCAGTTA | 0.0586 |

Some of these lines once more (set 2):
| Sequence | 6-mer enrichment (R) |
| --- | --- |
| GGAUCU | 0.902 |
| GUCUGA | 0.925 |
| UCUGGA | 0.91 |
| AUUAGU | 0.988 |
| GAAAUC | 0.794 |
| GCAGCA | 0.955 |
| UAGACG | 0.896 |
| GCGUAA | 0.936 |
| CUCCUG | 0.932 |
| GCUUAG | 0.918 |
| CAUAAC | 0.849 |
| CUCUAU | 0.923 |
| AUGAAG | 0.975 |
| UGGUCU | 0.949 |
